Results gathered from unrelated publications.
Parts stem from different laboratories: compare values within a part only. “And” joins repeats or separate records; there may be more than shown.
Chain of UniProt Q16566 (whole entry, looked up): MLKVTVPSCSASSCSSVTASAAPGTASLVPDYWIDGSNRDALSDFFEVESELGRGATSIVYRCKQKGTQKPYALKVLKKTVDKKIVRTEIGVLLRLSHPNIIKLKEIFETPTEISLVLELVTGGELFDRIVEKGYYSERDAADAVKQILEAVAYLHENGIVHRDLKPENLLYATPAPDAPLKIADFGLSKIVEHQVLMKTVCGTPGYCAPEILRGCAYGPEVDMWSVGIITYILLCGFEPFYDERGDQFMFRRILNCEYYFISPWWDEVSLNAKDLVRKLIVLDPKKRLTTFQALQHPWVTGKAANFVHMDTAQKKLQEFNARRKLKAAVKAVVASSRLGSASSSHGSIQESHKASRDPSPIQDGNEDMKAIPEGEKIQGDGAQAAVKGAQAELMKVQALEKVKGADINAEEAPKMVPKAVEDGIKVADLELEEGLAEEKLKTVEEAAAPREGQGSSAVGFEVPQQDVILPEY
Chain of UniProt O75914 (whole entry, looked up): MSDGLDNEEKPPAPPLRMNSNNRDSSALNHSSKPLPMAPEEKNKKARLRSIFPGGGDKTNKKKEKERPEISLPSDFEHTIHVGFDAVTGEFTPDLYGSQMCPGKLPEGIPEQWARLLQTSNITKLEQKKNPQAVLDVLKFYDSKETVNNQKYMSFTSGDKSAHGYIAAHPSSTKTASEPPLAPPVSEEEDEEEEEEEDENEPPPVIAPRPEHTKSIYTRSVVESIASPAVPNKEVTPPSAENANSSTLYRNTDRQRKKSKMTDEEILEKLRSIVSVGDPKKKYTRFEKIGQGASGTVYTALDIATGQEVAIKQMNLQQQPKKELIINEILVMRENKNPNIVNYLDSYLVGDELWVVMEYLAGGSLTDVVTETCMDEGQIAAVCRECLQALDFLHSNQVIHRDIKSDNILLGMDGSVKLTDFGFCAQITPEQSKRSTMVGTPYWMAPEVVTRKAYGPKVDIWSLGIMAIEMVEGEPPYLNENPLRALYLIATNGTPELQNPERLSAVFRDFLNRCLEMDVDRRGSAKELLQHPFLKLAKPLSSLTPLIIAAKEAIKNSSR
Chain of UniProt P32298 (whole entry, looked up): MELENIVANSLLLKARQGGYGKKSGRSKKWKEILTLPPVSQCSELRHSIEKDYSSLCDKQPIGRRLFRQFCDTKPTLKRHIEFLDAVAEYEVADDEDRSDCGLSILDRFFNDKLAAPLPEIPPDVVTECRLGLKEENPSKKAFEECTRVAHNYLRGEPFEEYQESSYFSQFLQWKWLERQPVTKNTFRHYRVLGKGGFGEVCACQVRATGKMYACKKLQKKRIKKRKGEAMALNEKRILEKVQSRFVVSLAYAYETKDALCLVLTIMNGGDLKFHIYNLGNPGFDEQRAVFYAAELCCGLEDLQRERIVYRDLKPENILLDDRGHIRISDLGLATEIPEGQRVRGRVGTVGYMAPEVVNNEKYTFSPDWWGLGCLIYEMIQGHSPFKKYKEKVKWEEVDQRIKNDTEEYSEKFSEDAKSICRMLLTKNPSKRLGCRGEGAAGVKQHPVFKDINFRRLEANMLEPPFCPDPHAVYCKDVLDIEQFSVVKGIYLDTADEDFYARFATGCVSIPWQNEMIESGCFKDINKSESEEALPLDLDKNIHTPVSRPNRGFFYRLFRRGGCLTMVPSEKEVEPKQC
Chain of UniProt Q9Y5S2 (whole entry, looked up): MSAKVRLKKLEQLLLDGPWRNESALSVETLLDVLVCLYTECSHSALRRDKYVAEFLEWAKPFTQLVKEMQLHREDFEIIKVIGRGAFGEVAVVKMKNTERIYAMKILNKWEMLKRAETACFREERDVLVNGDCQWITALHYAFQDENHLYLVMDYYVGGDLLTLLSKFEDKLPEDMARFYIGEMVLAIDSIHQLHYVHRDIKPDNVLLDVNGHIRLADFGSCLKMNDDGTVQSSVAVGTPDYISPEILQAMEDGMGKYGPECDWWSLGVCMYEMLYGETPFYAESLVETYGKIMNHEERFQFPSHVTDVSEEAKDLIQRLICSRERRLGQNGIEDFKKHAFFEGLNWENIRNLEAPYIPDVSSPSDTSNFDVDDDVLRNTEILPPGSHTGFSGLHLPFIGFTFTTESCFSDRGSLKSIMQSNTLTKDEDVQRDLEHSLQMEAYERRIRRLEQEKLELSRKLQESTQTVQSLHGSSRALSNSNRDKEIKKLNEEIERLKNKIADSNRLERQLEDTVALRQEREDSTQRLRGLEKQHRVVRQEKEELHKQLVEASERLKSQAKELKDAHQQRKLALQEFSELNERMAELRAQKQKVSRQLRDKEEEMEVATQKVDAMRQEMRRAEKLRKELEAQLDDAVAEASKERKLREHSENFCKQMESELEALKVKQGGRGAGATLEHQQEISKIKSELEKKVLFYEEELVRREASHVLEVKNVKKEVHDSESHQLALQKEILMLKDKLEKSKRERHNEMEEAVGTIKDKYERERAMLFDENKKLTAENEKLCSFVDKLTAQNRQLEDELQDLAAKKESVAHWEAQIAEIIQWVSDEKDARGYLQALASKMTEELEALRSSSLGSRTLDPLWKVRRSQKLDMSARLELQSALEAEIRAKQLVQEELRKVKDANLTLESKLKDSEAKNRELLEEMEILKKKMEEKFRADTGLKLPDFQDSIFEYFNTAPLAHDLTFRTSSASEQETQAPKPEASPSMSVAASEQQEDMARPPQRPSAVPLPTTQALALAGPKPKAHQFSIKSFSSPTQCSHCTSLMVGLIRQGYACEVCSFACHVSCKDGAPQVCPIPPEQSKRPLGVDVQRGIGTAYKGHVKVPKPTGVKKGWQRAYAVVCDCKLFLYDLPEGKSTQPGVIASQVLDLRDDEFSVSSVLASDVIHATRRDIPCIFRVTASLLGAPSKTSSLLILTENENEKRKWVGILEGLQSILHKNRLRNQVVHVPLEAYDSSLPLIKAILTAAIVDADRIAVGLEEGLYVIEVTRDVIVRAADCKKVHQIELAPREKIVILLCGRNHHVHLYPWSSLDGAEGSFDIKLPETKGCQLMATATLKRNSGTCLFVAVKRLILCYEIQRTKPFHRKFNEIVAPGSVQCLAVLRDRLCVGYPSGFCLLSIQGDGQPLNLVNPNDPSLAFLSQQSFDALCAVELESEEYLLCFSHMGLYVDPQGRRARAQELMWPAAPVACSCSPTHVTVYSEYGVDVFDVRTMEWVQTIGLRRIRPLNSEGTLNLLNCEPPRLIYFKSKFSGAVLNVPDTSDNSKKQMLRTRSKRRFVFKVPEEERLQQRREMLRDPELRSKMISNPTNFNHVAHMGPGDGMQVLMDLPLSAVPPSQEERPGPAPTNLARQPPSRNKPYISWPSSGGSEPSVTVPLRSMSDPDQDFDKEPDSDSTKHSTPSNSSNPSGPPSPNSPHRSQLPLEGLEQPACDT
Chain of UniProt Q13237 (whole entry, looked up): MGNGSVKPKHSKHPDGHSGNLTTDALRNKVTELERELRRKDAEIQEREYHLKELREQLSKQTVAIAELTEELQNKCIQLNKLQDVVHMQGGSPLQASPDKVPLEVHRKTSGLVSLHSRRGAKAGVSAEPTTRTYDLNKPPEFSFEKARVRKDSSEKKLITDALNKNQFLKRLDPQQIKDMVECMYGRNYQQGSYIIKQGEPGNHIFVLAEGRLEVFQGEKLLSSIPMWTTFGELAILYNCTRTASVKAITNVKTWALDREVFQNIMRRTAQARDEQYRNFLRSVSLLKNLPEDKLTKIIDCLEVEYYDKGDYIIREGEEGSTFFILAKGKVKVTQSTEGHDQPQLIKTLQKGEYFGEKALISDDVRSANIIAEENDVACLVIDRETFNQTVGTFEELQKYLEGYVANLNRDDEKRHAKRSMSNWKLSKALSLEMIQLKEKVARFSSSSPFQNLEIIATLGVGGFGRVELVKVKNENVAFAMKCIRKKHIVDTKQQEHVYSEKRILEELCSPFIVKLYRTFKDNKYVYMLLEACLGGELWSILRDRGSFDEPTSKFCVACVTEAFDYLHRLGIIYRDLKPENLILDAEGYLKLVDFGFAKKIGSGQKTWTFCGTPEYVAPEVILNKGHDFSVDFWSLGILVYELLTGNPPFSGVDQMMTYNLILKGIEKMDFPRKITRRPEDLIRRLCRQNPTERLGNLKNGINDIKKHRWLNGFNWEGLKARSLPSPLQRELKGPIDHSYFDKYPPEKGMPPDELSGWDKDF
Chain of UniProt P51956 (whole entry, looked up): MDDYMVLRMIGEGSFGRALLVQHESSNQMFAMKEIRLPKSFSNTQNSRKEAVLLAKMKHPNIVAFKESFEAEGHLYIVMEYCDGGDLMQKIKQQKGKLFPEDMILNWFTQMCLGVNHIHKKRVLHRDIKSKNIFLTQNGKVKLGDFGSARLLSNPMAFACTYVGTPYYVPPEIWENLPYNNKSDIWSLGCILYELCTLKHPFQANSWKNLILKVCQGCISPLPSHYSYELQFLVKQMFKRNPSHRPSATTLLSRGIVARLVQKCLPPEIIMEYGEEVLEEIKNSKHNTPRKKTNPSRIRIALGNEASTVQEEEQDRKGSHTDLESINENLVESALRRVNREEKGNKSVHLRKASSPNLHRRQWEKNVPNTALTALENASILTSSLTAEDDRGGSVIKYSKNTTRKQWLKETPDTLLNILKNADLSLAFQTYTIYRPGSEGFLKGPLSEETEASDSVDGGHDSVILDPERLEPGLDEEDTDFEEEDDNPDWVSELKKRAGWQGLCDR
Chain of UniProt Q13043 (whole entry, looked up): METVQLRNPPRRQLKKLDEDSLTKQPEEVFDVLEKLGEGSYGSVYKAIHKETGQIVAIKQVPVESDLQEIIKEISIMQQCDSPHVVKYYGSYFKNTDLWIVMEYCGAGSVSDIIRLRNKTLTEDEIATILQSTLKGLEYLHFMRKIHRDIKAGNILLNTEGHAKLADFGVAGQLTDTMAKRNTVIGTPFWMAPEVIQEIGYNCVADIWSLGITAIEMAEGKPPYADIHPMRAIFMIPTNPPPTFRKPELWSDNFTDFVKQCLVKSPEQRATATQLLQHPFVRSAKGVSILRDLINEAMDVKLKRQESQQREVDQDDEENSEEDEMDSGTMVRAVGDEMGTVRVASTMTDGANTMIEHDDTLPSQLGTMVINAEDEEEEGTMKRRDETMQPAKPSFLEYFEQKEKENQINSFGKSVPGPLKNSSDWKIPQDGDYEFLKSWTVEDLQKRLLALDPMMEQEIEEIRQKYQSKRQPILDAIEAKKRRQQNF

Sample 1
SMILES: O=Nc1c(-c2c(O)[nH]c3ccccc23)[nH]c2ccccc12
Read-out: enzyme activity
Mode: inhibitor
Tested at: 0.5 µM
Relative to: control
target | remaining activity [%]
GRK4 (Homo sapiens, UniProt P32298) | 98.3
MARK2 (Homo sapiens, UniProt Q7KZI7) | 78.4
CLK3 (Homo sapiens, UniProt P49761) | 48.2
MAPK11 (Homo sapiens, UniProt Q15759) | 92.9
DDR2 (Homo sapiens, UniProt Q16832) | 101
CAMK4 (Homo sapiens, UniProt Q16566) | 97.4
PAK3 (Homo sapiens, UniProt O75914) | 92.6
MAP2K1 (Homo sapiens, UniProt Q02750) | 99.6
NEK3 (Homo sapiens, UniProt P51956) | 102
DCLK2 (Homo sapiens, UniProt Q8N568) | 88.5
PRKG2 (Homo sapiens, UniProt Q13237) | 67.3
MET (Homo sapiens, UniProt P08581) | 110
CDC42BPB (Homo sapiens, UniProt Q9Y5S2) | 99.5

Sample 2
SMILES: CCOCCn1cc(C(=O)Nc2ccc(-n3nc(-c4cccnc4)cc3C(F)(F)F)cn2)ccc1=O
Read-out: cell-free assay
Method: competition with immobilised ligand
Tested at: 1 µM
target | remaining binding [%]
CAMK2A (Homo sapiens, UniProt Q9UQM7) | 93
ERBB3 (Homo sapiens, UniProt P21860) | 87
NLK (Homo sapiens, UniProt Q9UBE8) | 47
RIPK1 (Homo sapiens, UniProt Q13546) | 88
Tyrosine-protein kinase ABL1, non-phosphorylated (ABL1, Homo sapiens, UniProt P00519) | 94
STK4 (Homo sapiens, UniProt Q13043) | 100
EGFR (Homo sapiens, UniProt P00533, del752-759) | 100
BRSK1 (Homo sapiens, UniProt Q8TDC3) | 100

Sample 3
Species: human
Sample: microsomes or S9
Tested at: 2 µM
Time: 0.5 h
SMILES | remaining compound [%]
C(=C\c1nnn(Cc2ccccc2)n1)/c1ccccc1 | 31.5
COc1cc(=O)[nH]cc1C(=O)N1CCCC1c1ccc(O)cc1 (stereo not drawn) | > 99
CCC(C)NC(=O)Cn1nc2n(CCC(=O)NCC(C)C)c(=O)c3ccccc3n2c1=O (stereo not drawn) | 76.2
COc1ccc(C2OC(=O)CC2C(=O)N2CCN(c3cc(Cl)ccc3C)CC2)cc1OC (stereo not drawn) | 27.3
Cc1ccccc1-c1nc2ccccc2cc1Cn1c2ccc(C(N)=O)cc2c2cnc(N)nc21 | 14.2
COc1cc(NC(=O)c2cnn(-c3ccc(C)cc3C)c2C2CCNCC2)cc(OC)c1OC | 92.8
CCOc1cc(=O)n2c(c1C(=O)N1CCN(c3cccc(Cl)c3)CC1)CCCC2 | 67
Cc1nc2c(c(C)c(C)n2CCN2CCCC2)c(-c2ccc(Cl)cc2)c1[C@H](OC(C)(C)C)C(=O)O | > 100
CCNC(=O)NCCc1ccc(OC)c(Nc2ncc(Cl)c(Nc3ccccc3S(=O)(=O)C(C)C)n2)c1 | 0.861

Sample 4
Compound: COc1cc(C(=O)N2CCC(N3CCN(C)CC3)CC2)ccc1Nc1ncc2c(n1)N(C)c1ccccc1C(=O)N2C
target or system | test | system | conditions | inhibition
PKCa (mouse) | probe labelling, KiNativ, measured: LYS1 site peptide | brain tissue lysate (mouse) | 0.1 µM, together with: ATP acyl-phosphate probe | -0.9%
human PBMC | probe labeling, inhibitor, KiNativ profiling, measured: DIkPSNILLDR | cell lysate | concentration not given, LYS2 site, together with: ATP acyl-phosphate probe | -0.2%
CaMKK1 (mouse) | probe labelling, KiNativ, measured: Lys1 site peptide | brain tissue lysate (mouse) | 0.1 µM, together with: ATP acyl-phosphate probe | 7.9%
MYLK | KiNativ ADP probe | human PBMC lysate | 0.1 µM, LYS1 site | 5.2%
FER human | KiNativ profiling | human PBMC | 1 µM, activation loop site, together with: ATP acyl phosphate probe | -3.4%
FYN (mouse) | probe labelling, KiNativ ATP probe | mouse brain lysate | 0.1 µM, LYS1 labelled site | -4.6% and 2.3%
mouse CaMK2β and CaMK2δ | probe labelling, KiNativ ATP probe | mouse brain lysate | 1 µM, LYS1 site | -14.1%
ULK3 mouse | KiNativ profiling | mouse brain lysate | 1 µM, LYS2 site, together with: ADP acyl phosphate probe | -8.5%
mouse PFTAIRE1 | probe labelling, KiNativ ATP probe | mouse brain lysate | 0.1 µM, LYS1 site LVALkVIR | -4.2%
